Measured values gathered from unrelated publications.
Every numbered part comes from another study and shows a few of its results, in no order.

Block 1
Target: POU domain, class 5, transcription factor 1, POU domain (Pou5f1, Mus musculus, UniProt P20263, residues 131-289)
Sequence of UniProt P20263 (131-289, looked up): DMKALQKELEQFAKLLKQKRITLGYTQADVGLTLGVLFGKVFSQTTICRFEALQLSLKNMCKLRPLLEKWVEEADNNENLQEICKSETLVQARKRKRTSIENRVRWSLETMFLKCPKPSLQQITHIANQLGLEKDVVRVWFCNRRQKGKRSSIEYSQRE
Technique: Spec-seq
Form: double-stranded DNA, one strand shown
Medium: in vitro
Concentration: not given
Notes: whole probe, mean of replicates
Reference: not given
Direction: lower = stronger binding
Constant ends, left off below: GAGTCGTCTCGTCAGCAC … CCGTAGAGCACTCAGGTC
For `ATGCTACA`, “relative binding energy” read 0.343 ln ratio.
`ATGCCACA` — result for “relative binding energy”: 0.592 ln ratio.
`ATGCTGAC` — result for “relative binding energy”: 0.223 ln ratio.
Under “relative binding energy”, `ACGGTAAT` is recorded as 0.286 ln ratio.
`GCACTAAT`: “relative binding energy” 0.336 ln ratio.
For `TCATTAAT`, “relative binding energy” read -0.209 ln ratio.
Under “relative binding energy”, `ATGCGGGG` is recorded as 0.442 ln ratio.
For `TGTATAAT`, “relative binding energy” read -0.103 ln ratio.
Under “relative binding energy”, `ATGCTTGG` is recorded as 0.779 ln ratio.
`AATGTAAT` — result for “relative binding energy”: 0.0172 ln ratio.

Block 2
Target: Interferon regulatory factor 7, full length, phosphomimetic (IRF7, Homo sapiens, UniProt Q92985, residues 1-503, S471D/S472D/S475D/S476D/S477D/S483D/S484D/S487D)
Sequence of UniProt Q92985 (whole entry, unmodified, looked up): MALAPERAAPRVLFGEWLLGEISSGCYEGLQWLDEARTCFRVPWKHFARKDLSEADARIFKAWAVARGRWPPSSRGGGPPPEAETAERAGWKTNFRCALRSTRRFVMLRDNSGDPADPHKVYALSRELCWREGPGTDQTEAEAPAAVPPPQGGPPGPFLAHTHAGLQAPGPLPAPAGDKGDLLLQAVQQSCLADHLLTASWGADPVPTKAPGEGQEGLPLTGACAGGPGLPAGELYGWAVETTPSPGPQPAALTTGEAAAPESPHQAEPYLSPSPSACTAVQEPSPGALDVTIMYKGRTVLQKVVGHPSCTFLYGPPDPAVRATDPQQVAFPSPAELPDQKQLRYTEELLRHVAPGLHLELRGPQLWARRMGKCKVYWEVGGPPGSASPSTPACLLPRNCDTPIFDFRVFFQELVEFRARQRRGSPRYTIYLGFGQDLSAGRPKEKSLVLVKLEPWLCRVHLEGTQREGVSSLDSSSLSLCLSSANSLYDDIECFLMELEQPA
Technique: protein-binding microarray
Form: double-stranded DNA, one strand shown
Medium: in vitro
Concentration: 2200 nM top
Notes: 60-bp whole probe
Together with: salmon DNA 0.4 mg/ml
Reference: random background probes
Direction: higher = stronger binding
Constant ends, left off below: GCCTAGCAC … GTCTTGATTCGCTTGACGCTGCTG
For `GACGAGCTGAGTATCGAGACGTGCTAG`, “fitted relative affinity” read -0.22 z-score.
`CGACATCTGCAAGATCCACAAGTGCTA` — result for “fitted relative affinity”: 0.543 z-score.
For `TTACGTCTCCTTTTCCTTTAGTGCTAG`, “fitted relative affinity” read 3.21 z-score.
Under “fitted relative affinity”, `GACGGTATCTACTTTCGGGACGTGCTA` is recorded as 5.1 z-score.
`TCATGTTTGGGCATTTTTACTGTGCTA` — result for “fitted relative affinity”: 0.433 z-score.
For `TGAGGTATCGGTCTCGGTTAGTGCTAG`, “fitted relative affinity” read 0.504 z-score.
For `TTAGGTCTCCTTTTCCTTTAGTGCTAG`, “fitted relative affinity” read 1.96 z-score.
Under “fitted relative affinity”, `TTAGAACTGAGTTTCGATTAGTGCTAG` is recorded as 3.42 z-score.
`TTTGGTATCGGACTGGGTTAGTGCTAG` — result for “fitted relative affinity”: 0.806 z-score.
Under “fitted relative affinity”, `TTAGGTTTCCTACTGCGTTAGTGCTAG` is recorded as 1.01 z-score.
For `GTCGGTCTCCTTTTCCTGACGTGCTAG`, “fitted relative affinity” read 2.36 z-score.
`TTAGGACTGCTACTTCTTTAGTGCTAG` — result for “fitted relative affinity”: -0.0387 z-score.
Under “fitted relative affinity”, `TTAGATCTCAGCTTCGATTAGTGCTAG` is recorded as 0.261 z-score.

Block 3
Target: Fragile X messenger ribonucleoprotein 1, C-terminal low-complexity region (Fmr1, Mus musculus, UniProt P35922)
Technique: RNA Bind-n-Seq
Form: RNA
Medium: in vitro
Concentration: 200 nM
Notes: whole 134-nt RNA, ends assumed
Together with: 150 mM KCl
Reference: input library
Direction: higher = stronger binding
Constant ends, left off below: GGGAGUUCUACAGUCCGACGAUC … UGGAAUUCUCGGGUGUCAAGG
The log2 enrichment of `GCAGAAAGUAAAAACAAAUGGAAAUGCUUCGGAUAGUGGCAGGGGUGGGGGUUGCUAAGGAAAGGGUGGGAUGGGAGUGGGUAAAGAGUU` is reported as 0.664.
`CUGUGCUACACAUCGUAUGUACCGAAUCGGGGAAAAAAGGGGAAAAAAGGGGAAAAAAGGGAAAGUAUUAUGUUACGCCGUUCGGAUCUG` has a log2 enrichment of -0.318.
With `UGGCCCUGGUGGCAUGCGGGGAGGAAGAGGUGGCCUCAUGGAUCGUGGUGGUCCCGGUGGAAUGUUCAGAGGUGGCCGGGGUGGAGACAG` the log2 enrichment was 0.0931.
The log2 enrichment of `UGGUAAGAAAUCUGCUUGUUUUAUUAAAAUGCUUAAUUGAAGAAAAUAAUAUUCUUCUGUGAUUAAAAUUAGGAAGAAAUAGAACCAUUU` is reported as -1.25.
The log2 enrichment of `CACAGACAACACGCACCCACACAGACACAGAUGGAAGGGGUUGGGAUGGGGACAGGGUGCACAGCAGGGCGGGGUAGGACCCCAGCCCCU` is reported as 1.31.
For `ACCAUGCAGGUGGGCAUCUUUGGGAAGUGGGGCAAGGGGGGGAUAGGGAGGGGGGUAACACUUUGGGAAAAGGUGGUCCCAGGUCGUUUC`, the log2 enrichment was 0.708.
With `CCUGUGCUACACAUCGUAUGUACCGAAUCGGGGUUUUUGGGGUUUUUGGGGUUUUUGGGGAAAGUAUUAUGUUACGCCGUUCGGAUCUGC` the log2 enrichment was 0.599.

Further values, each from its own experiment
For `GSPLAKAFTSTGL`, “growth enrichment score” read -0.371 (Saccharomyces cerevisiae; binding, competitive growth deep sequencing; peptide, cyclin D3-Cln2 fusion strain; concentration not given, peptide library 1; direction not given).
`PhoQ, residues 284 288 289 292 302 303 WVSSAF` gave a fold induction of 16.2 (PhoP, residues 12 14 15 18 19 NYFTV (Escherichia coli, UniProt P23836); Sort-seq, measured: YFP reporter; E. coli; PhoQ-PhoP variant library, together with: 10 µM Mg2+; reference: high Mg2+ state, higher = stronger signaling).
Under “growth enrichment score”, `GSALKKLFTSTGL` is recorded as -0.0161 (Saccharomyces cerevisiae; binding, competitive growth deep sequencing; peptide, cyclin D3-Cln2 fusion strain; concentration not given, peptide library 1; direction not given).

Some of these lines once more (block 2):
For `TTAGGTCTCCTTTTCCTTTAGTGCTAG`, “fitted relative affinity” read 1.96 z-score.
Under “fitted relative affinity”, `TTAGAACTGAGTTTCGATTAGTGCTAG` is recorded as 3.42 z-score.
`TTTGGTATCGGACTGGGTTAGTGCTAG` — result for “fitted relative affinity”: 0.806 z-score.
Under “fitted relative affinity”, `TTAGGTTTCCTACTGCGTTAGTGCTAG` is recorded as 1.01 z-score.
